Published values from different studies.
Each numbered part is a random draw from the data of one study; scales do not carry over between parts.
UniProt P32298, sequence (whole entry, looked up): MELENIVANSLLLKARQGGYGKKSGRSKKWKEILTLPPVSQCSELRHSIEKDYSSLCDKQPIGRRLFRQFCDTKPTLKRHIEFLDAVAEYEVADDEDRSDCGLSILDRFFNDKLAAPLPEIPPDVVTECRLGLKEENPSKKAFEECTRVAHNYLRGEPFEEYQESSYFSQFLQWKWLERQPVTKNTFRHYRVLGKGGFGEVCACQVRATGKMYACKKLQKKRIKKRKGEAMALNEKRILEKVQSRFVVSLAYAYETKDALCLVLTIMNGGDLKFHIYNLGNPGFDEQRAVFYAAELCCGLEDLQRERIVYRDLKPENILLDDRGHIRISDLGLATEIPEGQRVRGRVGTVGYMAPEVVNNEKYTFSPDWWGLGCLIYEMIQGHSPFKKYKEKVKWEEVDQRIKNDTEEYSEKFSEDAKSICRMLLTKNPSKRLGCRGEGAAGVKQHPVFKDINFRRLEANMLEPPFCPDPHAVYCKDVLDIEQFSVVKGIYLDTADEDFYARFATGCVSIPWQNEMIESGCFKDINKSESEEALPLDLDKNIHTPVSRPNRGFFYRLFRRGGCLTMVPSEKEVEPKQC
UniProt P51956, sequence (whole entry, looked up): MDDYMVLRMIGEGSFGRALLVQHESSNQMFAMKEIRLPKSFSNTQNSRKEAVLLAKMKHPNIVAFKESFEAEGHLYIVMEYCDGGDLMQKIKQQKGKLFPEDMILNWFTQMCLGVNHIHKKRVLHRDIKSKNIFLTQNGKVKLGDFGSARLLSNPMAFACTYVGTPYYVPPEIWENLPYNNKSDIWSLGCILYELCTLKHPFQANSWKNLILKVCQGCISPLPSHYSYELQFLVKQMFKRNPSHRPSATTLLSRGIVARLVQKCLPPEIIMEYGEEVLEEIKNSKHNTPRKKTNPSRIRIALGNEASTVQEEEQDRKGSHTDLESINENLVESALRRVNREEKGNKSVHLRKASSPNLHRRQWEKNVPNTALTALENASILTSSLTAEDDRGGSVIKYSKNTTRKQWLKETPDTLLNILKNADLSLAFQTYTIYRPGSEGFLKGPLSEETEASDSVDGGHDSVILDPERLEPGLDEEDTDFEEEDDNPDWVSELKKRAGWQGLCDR
UniProt Q13237, sequence (whole entry, looked up): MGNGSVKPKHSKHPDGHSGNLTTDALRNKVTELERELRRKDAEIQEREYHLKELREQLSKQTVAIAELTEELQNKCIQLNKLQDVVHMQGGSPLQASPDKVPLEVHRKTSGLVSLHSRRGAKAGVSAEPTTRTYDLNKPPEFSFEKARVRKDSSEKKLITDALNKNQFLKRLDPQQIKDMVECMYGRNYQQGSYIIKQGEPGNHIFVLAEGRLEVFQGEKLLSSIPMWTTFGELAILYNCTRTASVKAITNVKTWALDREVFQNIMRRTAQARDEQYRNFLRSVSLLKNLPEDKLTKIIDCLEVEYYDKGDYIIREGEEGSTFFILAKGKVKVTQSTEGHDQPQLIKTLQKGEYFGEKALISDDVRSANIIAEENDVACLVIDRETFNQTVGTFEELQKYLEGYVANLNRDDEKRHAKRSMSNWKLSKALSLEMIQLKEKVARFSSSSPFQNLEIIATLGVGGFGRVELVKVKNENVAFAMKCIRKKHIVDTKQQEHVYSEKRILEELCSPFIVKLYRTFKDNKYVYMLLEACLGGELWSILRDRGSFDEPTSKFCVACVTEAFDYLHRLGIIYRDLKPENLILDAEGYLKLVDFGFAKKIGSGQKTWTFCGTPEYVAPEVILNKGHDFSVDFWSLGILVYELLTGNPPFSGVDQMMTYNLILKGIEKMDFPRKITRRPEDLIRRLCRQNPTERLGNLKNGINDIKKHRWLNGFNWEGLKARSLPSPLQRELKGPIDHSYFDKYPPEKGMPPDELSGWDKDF

Block 1 — effect on: ligand displacement; concentration: 10 µM
Target: D(2) dopamine receptor (DRD2, Homo sapiens, UniProt P14416)
UniProt P14416, sequence (whole entry, looked up): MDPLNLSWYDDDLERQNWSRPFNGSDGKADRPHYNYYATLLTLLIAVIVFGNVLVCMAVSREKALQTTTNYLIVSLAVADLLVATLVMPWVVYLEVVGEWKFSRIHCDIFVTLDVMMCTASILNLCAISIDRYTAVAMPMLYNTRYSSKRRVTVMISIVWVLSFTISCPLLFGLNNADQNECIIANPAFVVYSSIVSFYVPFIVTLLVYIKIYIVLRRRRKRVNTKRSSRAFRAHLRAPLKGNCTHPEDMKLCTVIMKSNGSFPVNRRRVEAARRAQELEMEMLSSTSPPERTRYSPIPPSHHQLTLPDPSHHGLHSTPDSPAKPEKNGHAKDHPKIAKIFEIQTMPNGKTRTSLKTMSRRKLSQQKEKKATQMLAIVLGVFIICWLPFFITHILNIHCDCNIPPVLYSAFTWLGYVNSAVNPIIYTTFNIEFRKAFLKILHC
For `CCOc1ccc(S(=O)(=O)Nc2ccc(Cl)cc2C#Cc2cnc(C(=O)O)cc2OC)c2ncccc12`, the inhibition was 9.9%.
With `N#CC1(c2ccccn2)CCN(Cc2cc(C(=O)N3CCCC3)c(=O)n3ccccc23)CC1` the inhibition was -5.66%.
`Nc1cnc(N2CCc3cc(S(=O)(=O)Nc4c(F)cc(Cl)cc4F)cc(N4CCCC4=O)c32)nc1` gave an inhibition of -0.42%.
For `CC[C@H](CC(=O)O)n1c(=O)c2ncccc2n(Cc2cn(C)c3cc(C)cc(C)c23)c1=O`, the inhibition was 0.91%.
For `O=C(Nc1ccc(Oc2ccc(F)cc2)cc1)N1CCc2ncccc2[C@H]1c1ccc(F)cc1`, the inhibition was -3.97%.
With `c1ccc(N2CCN(Cc3nc4ccccc4[nH]3)CC2)nc1` the inhibition was -7.28%.
The inhibition of `COc1cc(N[C@@H]2CCCC[C@]2(O)C(F)(F)F)ccc1F` is reported as -4.34%.
With `CN1CCN(c2ccnc(NCCc3ccccc3)n2)CC1` the inhibition was 20.6%.

Block 2 — effect on: enzyme activity; action: inhibitor; concentration: 0.5 µM; relative to: control
SMILES: CN(C)S(=O)(=O)c1ccc2c(c1)/C(=C/c1cc3c([nH]1)CCCC3)C(=O)N2
For Tyrosine-protein kinase TXK (TXK, Homo sapiens, UniProt P42681): remaining activity read 96%.
The remaining activity was 96.6% (Calcium/calmodulin-dependent protein kinase type IV (CAMK4, Homo sapiens, UniProt Q16566)).
cGMP-dependent protein kinase 2 (PRKG2, Homo sapiens, UniProt Q13237) — remaining activity: 95.9%.
The remaining activity was 50.7% (Dual specificity protein kinase CLK4 (CLK4, Homo sapiens, UniProt Q9HAZ1)).
For Serine/threonine-protein kinase PLK3 (PLK3, Homo sapiens, UniProt Q9H4B4): remaining activity read 94.5%.
Serine/threonine-protein kinase MRCK beta (CDC42BPB, Homo sapiens, UniProt Q9Y5S2) — remaining activity: 101%.
RAC-beta serine/threonine-protein kinase (AKT2, Homo sapiens, UniProt P31751) — remaining activity: 105%.
Mitogen-activated protein kinase 14 (MAPK14, Homo sapiens, UniProt Q16539) — remaining activity: 98.8%.
It gave 79.8% for remaining activity (G protein-coupled receptor kinase 4 (GRK4, Homo sapiens, UniProt P32298)).
It gave 96.9% for remaining activity (Vascular endothelial growth factor receptor 2 (KDR, Homo sapiens, UniProt P35968)).
It gave 98.2% for remaining activity (Serine/threonine-protein kinase Nek3 (NEK3, Homo sapiens, UniProt P51956)).
Dual specificity mitogen-activated protein kinase kinase 1 (MAP2K1, Homo sapiens, UniProt Q02750) — remaining activity: 88.7%.
Hepatocyte growth factor receptor (MET, Homo sapiens, UniProt P08581) — remaining activity: 92.2%.
Serine/threonine-protein kinase MARK2 (MARK2, Homo sapiens, UniProt Q7KZI7) — remaining activity: 61.7%.

Block 3 — organism: Plasmodium berghei; action: inhibitor; cells: Huh-7; strain: GFP-expressing, liver stage; concentration: 10 µM; time: 24 h; relative to: untreated control
`Cc1ccnc(NS(=O)(=O)c2ccc(N)cc2)n1` gave an infection rate of 105%.
With `NC(=O)N1c2ccccc2CC(=O)c2ccccc21` the infection rate was 99.8%.
`OC(CCN1CCCC1)(c1ccccc1)C1CCCCC1` (centres unmarked) has an infection rate of 100%.
`CC(C)[C@H](N)C(=O)OCCOCn1cnc2c(=O)nc(N)[nH]c21` gave an infection rate of 108%.
`CC1=C(CC(=O)O)c2cc(F)ccc2/C1=C\c1ccc([S+](C)[O-])cc1` (centres unmarked) gave an infection rate of 110%.
`CO[C@H]1C[C@H](O[C@H]2[C@H](C)[C@@H](O[C@@H]3O[C@H](C)C[C@H](N(C)C)[C@H]3O)[C@@H](C)C[C@@]3(CO3)C(=O)[C@H](C)[C@@H](O)[C@@H](C)[C@@H](C)OC(=O)[C@@H]2C)O[C@@H](C)[C@@H]1O` has an infection rate of 115%.
With `CC(C)[N+](C)(CCOC(=O)C1c2ccccc2Oc2ccccc21)C(C)C` the infection rate was 51.2%.
With `Cc1ccc(C(=O)c2ccc(CC(=O)O)n2C)cc1` the infection rate was 119%.
For `NC(=O)c1cnccn1`, the infection rate was 83.6%.
The infection rate of `CCCc1nc(C(C)(C)O)c(C(=O)OCc2oc(=O)oc2C)n1Cc1ccc(-c2ccccc2-c2nnn[nH]2)cc1` is reported as 81.2%.
`C#CC1(O)CC[C@H]2[C@@H]3CCC4=CC(=O)CC[C@@H]4[C@H]3CC[C@@]21CC` (mixture of isomers) has an infection rate of 102%.
For `CN[C@@H]1[C@H](O[C@H]2[C@H](O[C@H]3[C@H](O)[C@@H](O)[C@H](N=C(N)N)[C@@H](O)[C@@H]3N=C(N)N)O[C@@H](C)[C@]2(O)C=O)O[C@@H](CO)[C@H](O)[C@H]1O`, the infection rate was 109%.
`COCCOC(=O)C1=C(C)NC(C)=C(C(=O)OC(C)C)C1c1cccc([N+](=O)[O-])c1` (centres unmarked) has an infection rate of 98.6%.

Block 4 — effect on: enzyme activity; action: inhibitor; concentration: 77 µM; relative to: untreated
Target: DNA polymerase theta, ATPase domain (POLQ, Homo sapiens, UniProt O75417)
UniProt O75417, sequence (whole entry, unmodified, looked up): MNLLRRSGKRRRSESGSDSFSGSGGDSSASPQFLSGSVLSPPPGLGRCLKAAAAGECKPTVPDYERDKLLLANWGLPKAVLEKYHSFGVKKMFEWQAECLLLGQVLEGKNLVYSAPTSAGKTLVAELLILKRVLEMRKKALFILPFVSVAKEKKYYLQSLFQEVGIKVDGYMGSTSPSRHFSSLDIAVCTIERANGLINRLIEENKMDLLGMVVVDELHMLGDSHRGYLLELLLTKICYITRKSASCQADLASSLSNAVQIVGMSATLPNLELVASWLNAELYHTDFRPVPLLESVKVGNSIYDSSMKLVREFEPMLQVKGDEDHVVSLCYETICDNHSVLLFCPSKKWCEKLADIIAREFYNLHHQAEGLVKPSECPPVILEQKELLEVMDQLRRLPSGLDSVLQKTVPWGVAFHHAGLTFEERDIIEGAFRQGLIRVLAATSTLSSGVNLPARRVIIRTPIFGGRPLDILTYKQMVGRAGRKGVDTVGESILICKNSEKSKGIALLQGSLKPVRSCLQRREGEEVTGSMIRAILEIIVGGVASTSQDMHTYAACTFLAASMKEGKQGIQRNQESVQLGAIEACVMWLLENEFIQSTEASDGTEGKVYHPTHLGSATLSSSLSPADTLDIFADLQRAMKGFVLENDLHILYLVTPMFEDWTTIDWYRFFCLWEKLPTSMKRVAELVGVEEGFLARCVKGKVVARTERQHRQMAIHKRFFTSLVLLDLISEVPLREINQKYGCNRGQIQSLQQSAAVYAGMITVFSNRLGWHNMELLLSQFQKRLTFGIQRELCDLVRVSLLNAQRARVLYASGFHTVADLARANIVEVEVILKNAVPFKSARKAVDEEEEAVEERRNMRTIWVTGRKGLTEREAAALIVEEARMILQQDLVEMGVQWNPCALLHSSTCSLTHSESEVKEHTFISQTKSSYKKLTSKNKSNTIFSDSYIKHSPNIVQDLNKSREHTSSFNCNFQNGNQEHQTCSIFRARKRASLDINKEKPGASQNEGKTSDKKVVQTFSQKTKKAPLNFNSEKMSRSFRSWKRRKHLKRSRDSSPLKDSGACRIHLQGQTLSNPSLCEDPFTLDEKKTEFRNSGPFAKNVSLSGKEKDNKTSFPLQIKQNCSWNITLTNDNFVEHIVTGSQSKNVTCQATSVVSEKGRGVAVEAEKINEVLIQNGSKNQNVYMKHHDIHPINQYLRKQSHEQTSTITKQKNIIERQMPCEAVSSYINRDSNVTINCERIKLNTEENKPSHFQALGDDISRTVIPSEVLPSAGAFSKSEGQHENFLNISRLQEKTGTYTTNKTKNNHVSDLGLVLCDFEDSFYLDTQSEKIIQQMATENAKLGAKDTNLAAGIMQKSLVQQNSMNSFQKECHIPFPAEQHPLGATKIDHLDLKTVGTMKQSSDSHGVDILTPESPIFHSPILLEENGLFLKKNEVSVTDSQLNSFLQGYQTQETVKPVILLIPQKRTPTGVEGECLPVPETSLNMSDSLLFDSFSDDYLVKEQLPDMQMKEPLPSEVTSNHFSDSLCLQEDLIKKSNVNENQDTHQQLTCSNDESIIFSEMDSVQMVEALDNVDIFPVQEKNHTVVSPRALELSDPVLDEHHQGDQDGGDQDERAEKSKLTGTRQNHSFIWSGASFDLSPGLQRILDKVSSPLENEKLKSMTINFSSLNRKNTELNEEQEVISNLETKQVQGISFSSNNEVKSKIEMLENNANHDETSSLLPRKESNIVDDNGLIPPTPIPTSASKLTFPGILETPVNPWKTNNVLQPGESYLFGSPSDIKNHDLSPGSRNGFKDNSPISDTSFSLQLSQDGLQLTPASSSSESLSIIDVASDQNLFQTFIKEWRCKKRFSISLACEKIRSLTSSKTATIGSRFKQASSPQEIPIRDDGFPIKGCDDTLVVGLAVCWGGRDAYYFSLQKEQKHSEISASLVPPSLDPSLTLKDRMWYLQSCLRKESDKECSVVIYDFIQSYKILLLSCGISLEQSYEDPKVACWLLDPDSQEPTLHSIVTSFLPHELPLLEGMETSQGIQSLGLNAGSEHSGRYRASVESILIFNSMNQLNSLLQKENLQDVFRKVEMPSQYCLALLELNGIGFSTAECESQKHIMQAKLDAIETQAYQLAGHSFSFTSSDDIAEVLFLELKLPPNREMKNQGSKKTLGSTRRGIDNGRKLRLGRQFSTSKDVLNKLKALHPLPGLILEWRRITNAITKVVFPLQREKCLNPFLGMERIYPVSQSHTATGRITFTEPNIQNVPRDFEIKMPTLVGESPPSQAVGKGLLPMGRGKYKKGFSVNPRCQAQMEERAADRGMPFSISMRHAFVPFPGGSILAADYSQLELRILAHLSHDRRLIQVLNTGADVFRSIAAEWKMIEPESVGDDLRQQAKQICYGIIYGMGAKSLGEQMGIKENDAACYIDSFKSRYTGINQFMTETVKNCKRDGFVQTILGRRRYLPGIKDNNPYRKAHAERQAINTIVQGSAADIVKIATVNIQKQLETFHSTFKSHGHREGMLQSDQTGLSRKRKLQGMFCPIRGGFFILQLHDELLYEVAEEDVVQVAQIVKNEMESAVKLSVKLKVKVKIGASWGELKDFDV
For `CCCCCOC(=O)Nc1nc(=O)n([C@@H]2O[C@H](C)[C@@H](O)[C@H]2O)cc1F`, the remaining activity was 104%.
With `COc1cc2ncnc(Oc3cccc(NC(=O)Nc4cc(C(C)(C)C(F)(F)F)on4)c3)c2cc1OC` the remaining activity was 100%.
The remaining activity of `O=C1CN2Cc3c(ccc(Cl)c3Cl)N=C2N1` is reported as 86.3%.
With `N#C/C(=C1/SC[C@@H](c2ccc(Cl)cc2Cl)S1)n1ccnc1` the remaining activity was 102%.
With `Cc1ccc(NC2=CC(=O)c3sc(C)nc3C2=O)cc1` the remaining activity was 113%.
`C[C@@H](CN1CCC(Cc2ccccc2)CC1)[C@@H](O)c1ccc(O)cc1` has a remaining activity of 97.2%.
`Cn1c(=O)c2[nH]c(-c3ccc(S(=O)(=O)O)cc3)nc2n(C)c1=O` gave a remaining activity of 94.4%.
`CCCN(CCc1cccs1)[C@H]1CCc2c(O)cccc2C1` has a remaining activity of 99%.
With `CC1=CC(=O)NS(=O)(=O)O1` the remaining activity was 91.3%.
With `CCN1CCC[C@H]1CNC(=O)c1c(OC)ccc(Br)c1OC` the remaining activity was 96.4%.
`Cc1cc2c(cc1S(N)(=O)=O)S(=O)(=O)CCC2` has a remaining activity of 98.2%.
With `C=CC1=C(C)c2cc3[nH]c(cc4nc(cc5[nH]c(cc1n2)c(C)c5CCC(=O)O)C(CCC(=O)O)=C4C)c(C)c3C=C` the remaining activity was 106%.

Repeated from above (block 3):
`CC(C)[C@H](N)C(=O)OCCOCn1cnc2c(=O)nc(N)[nH]c21` gave an infection rate of 108%.
With `NC(=O)N1c2ccccc2CC(=O)c2ccccc21` the infection rate was 99.8%.
`CC1=C(CC(=O)O)c2cc(F)ccc2/C1=C\c1ccc([S+](C)[O-])cc1` (centres unmarked) gave an infection rate of 110%.
For `NC(=O)c1cnccn1`, the infection rate was 83.6%.
